# Measurements gathered from unrelated publications.
# Each line is one published result; not all experiments were run side by side. ± gives the spread as reported.
# UniProt P11150, sequence (whole entry, looked up): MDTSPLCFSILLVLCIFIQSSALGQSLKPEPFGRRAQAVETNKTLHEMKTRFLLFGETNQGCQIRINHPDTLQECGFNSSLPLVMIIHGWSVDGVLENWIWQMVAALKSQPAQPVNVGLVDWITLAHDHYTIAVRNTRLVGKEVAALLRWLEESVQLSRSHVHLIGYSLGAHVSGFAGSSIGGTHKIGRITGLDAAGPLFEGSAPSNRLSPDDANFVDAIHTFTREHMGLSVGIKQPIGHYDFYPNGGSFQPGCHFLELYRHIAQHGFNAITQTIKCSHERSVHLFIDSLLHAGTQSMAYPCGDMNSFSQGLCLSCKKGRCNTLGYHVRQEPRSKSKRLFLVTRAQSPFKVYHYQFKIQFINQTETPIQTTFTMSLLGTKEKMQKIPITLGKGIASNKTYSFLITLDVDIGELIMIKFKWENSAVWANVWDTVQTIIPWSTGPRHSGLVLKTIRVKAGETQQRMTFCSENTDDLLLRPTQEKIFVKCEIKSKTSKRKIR
# UniProt P50613, sequence (whole entry, looked up): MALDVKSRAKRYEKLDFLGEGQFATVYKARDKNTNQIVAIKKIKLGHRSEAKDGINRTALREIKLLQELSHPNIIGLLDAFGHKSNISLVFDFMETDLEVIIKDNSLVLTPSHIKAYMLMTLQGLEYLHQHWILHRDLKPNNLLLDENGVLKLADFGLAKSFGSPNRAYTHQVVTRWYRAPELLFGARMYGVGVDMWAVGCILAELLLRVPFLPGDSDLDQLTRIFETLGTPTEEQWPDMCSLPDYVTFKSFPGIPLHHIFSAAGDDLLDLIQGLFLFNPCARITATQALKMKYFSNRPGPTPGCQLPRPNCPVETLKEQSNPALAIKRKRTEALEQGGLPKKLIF
Structure (SMILES),tested on,test,test system,setting,how to read,endpoint,result
C[C@H]1CN(c2n[nH]c3nc(N[C@H]4CC[C@H](NS(=O)(=O)CCC(F)(F)F)CC4)ncc23)CCO1,"Cyclin-dependent kinase 7 (CDK7, Homo sapiens, UniProt P50613)",Kinobeads competition,"HEK293, K562, placenta lysate","20 µM, unit not given",relative to: vehicle,remaining binding,0.26
O=C1c2c(O)c(=O)ccn2N([C@@H]2c3ccccc3SCc3c2ccc(F)c3F)[C@@H]2COCCN12,,,BALB/c mouse,"subcutaneous, 4 mg/kg q12h",,trough concentration,33.6 ng/mL
Cc1cc(C)cc(-c2ccc(CN3CCCC3C(=O)NCc3cccc(F)c3)cc2)c1 (stereo not shown),Vero-E6,CellTiter-Glo ATP,,"concentration not given, 72 h, first round 5-point","relative to: DMSO 0%, hyamine -100%, more negative, more toxic",cytotoxicity efficacy,-11.2%
O=C(c1ccc(Cl)cc1)N1CCN2C(=O)N(OC(=O)N3CCOc4ccccc43)C(=O)C2C1 (stereo not shown),"Hepatic triacylglycerol lipase (Homo sapiens, UniProt P11150)","enzyme activity, inhibitor, MS-based ABPP",SW-620 in situ,"10 µM, 2 h, 37 °C","relative to: compound over DMSO, lower = stronger inhibition",median ratio,1.1
[Cl-].[Cl-].[Pt+2].[Ru+2].c1ccc(-c2nc3ccccc3nc2-c2ccccn2)nc1.c1cnc2c(c1)ccc1cccnc12.c1cnc2c(c1)ccc1cccnc12,Danio rerio,,embryos,"60 µM, 48 h",,survival rate,70 ± 4.1%
CN1CC[C@@H](c2c(O)cc(O)c3c(=O)cc(-c4ccc(C(F)(F)F)cc4Cl)oc23)[C@@H]1CO,,measured: febrile neutropenia,AML,"oral, 200 mg, grade 3 to 4, intermittent dosing",,patients with adverse event,20%
CC(=O)N1CCC(C(=O)N2CCN3C(=O)c4cc(-c5ccccc5)ccc4NC(=O)C3C2)CC1 (stereo not shown),Salmonella typhimurium,,TA1537,"50 µg/plate, together with: rat liver S9",,revertants per plate,16.5
C[C@@H](O)[C@@H](CO)NC(=O)[C@@H](CCCNC(=N)N)NC(=O)[C@@H]1CCCN1C(=O)[C@@H]1CSSC[C@H](NC(=O)[C@H](Cc2ccccc2)NC(=O)CN2CCN(CC(=O)O)CCN(CC(=O)O)CCN(CC(=O)O)CC2)C(=O)N[C@@H](Cc2ccc(O)cc2)C(=O)N[C@@H](Cc2ccccc2)C(=O)N[C@@H](CCC(N)=O)C(=O)N[C@@H](CC(N)=O)C(=O)N1 [gallium-68 labelled],,,"Wistar rat, healthy, sublingual gland","intravenous, 8 MBq, 120 min",,tissue uptake,0.19 %ID/g
CO[C@H]1C[C@@H]2CC[C@@H](C)[C@@](O)(O2)C(=O)C(=O)N2CCCC[C@H]2C(=O)O[C@H]([C@H](C)C[C@@H]2CC[C@@H](OC(=O)NCCOCCOCCOCCOCCOCCOCCOCCOCCC(=O)N3CCc4cc(Cn5nc(-c6ccc7oc(N)nc7c6)c6c(N)ncnc65)ccc4C3)[C@H](OC)C2)C[C@@H](O)[C@H](C)/C=C(\C)[C@@H](O)[C@@H](OC)C(=O)[C@H](C)C[C@H](C)/C=C/C=C/C=C/1C,,phase 1 dose escalation,advanced solid tumour patients,"intravenous, 10 mg weekly, any grade",,any TRAE incidence,87.5%
Cc1ncccc1-c1nc2cc(C(=O)NCCCc3ccccc3)ccc2o1,Vero-E6,CellTiter-Glo ATP,,"72 h, retest 8-point duplicates","relative to: DMSO 0%, hyamine -100%, more negative, more toxic",maximum response,-8.09%
CC[C@H](C)[C@H](NC(=O)[C@H](Cc1ccccc1)NC(=O)[C@H](CCC(=O)O)NC(=O)[C@H](CCCNC(=N)N)NC(=O)[C@H](C)NC(=O)[C@H](C)NC(=O)[C@H](CCC(N)=O)NC(=O)[C@H](CCC(=O)O)NC(=O)[C@H](CCC(=O)O)NC(=O)[C@H](CC(C)C)NC(=O)[C@H](Cc1ccc(O)cc1)NC(=O)[C@H](CO)NC(=O)[C@H](CO)NC(=O)[C@@H](NC(=O)[C@H](CC(=O)O)NC(=O)[C@H](CO)NC(=O)[C@@H](NC(=O)[C@H](Cc1ccccc1)NC(=O)[C@@H](NC(=O)CNC(=O)[C@H](CCC(=O)O)NC(=O)[C@H](C)NC(=O)CCc1c[nH]cn1)[C@@H](C)O)[C@@H](C)O)C(C)C)C(=O)N[C@@H](C)C(=O)N[C@@H](Cc1c[nH]c2ccccc12)C(=O)N[C@@H](CC(C)C)C(=O)N[C@H](C(=O)N[C@@H](CCCNC(=N)N)C(=O)NCC(=O)N[C@@H](CCCNC(=N)N)C(=O)N[C@@H](CCCCNC(=O)COCCOCCNC(=O)COCCOCCNC(=O)CC[C@H](NC(=O)CCCCCCCCCCCCCCCCC(=O)O)C(=O)O)C(=O)NCC(=O)NCC(=O)N[C@@H](CO)C(=O)N[C@@H](CCCCNc1c(NCCCCCN(O)C(=O)CCC(=O)NCCCCCN(O)C(=O)CCC(=O)NCCCCCN(O)C(C)=O)c(=O)c1=O)C(=O)O)C(C)C [zirconium-89 labelled],,,"rat, femur","intravenous, 3 nmol/kg, 72 h",,tissue uptake,0.14 %ID/g
CNCCN(C)c1nc(NC(C)c2ccccc2)c2ccccc2n1 (stereo not shown),Vero-E6,CellTiter-Glo ATP,,"72 h, retest 8-point duplicates","relative to: DMSO 0%, hyamine -100%, more negative, more toxic",maximum response,-4.01%
COc1cc2c(Oc3ccc4[nH]c(C)cc4c3F)ccnc2cc1OCC1(N)CC1,,,paediatric recurrent refractory sarcoma,"concentration not given, whole group",,grade 3 Leukopenia,0%

# Excerpt of the above:
Structure (SMILES),tested on,test,test system,setting,how to read,endpoint,result
O=C1c2c(O)c(=O)ccn2N([C@@H]2c3ccccc3SCc3c2ccc(F)c3F)[C@@H]2COCCN12,,,BALB/c mouse,"subcutaneous, 4 mg/kg q12h",,trough concentration,33.6 ng/mL
Cc1cc(C)cc(-c2ccc(CN3CCCC3C(=O)NCc3cccc(F)c3)cc2)c1 (stereo not shown),Vero-E6,CellTiter-Glo ATP,,"concentration not given, 72 h, first round 5-point","relative to: DMSO 0%, hyamine -100%, more negative, more toxic",cytotoxicity efficacy,-11.2%
